# Results collected from several papers.
# Each line is one published result; not all experiments were run side by side. “And” joins repeats or separate records; there may be more than shown. ± gives the spread as reported.
# gyrB with GyrA: DNA gyrase subunit B, with GyrA (gyrB, Mycobacterium tuberculosis, UniProt P9WG45)
# Sequence of UniProt P9WG45 (whole entry, looked up): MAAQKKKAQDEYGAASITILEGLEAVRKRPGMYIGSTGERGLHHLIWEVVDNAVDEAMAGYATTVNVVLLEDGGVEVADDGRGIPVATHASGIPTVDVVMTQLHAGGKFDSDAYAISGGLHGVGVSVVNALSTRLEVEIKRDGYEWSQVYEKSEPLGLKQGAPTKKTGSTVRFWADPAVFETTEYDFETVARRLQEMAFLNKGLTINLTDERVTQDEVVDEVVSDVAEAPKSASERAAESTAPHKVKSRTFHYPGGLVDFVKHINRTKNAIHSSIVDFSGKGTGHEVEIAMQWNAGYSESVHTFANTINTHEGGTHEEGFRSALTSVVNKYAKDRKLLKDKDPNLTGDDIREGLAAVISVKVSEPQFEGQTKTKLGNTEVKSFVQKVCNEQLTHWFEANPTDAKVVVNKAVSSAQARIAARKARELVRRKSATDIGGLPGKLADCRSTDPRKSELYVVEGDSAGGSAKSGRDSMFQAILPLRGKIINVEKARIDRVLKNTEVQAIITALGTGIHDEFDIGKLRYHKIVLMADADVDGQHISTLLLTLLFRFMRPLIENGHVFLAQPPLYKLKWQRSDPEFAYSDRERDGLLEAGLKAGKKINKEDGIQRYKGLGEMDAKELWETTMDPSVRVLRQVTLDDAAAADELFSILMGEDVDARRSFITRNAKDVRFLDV
# HA: Hemagglutinin (HA, Influenza A virus, UniProt P03452)
# ARID1B: AT-rich interactive domain-containing protein 1B (ARID1B, Homo sapiens, UniProt Q8NFD5)
# Sequence of UniProt Q8NFD5 (whole entry, looked up): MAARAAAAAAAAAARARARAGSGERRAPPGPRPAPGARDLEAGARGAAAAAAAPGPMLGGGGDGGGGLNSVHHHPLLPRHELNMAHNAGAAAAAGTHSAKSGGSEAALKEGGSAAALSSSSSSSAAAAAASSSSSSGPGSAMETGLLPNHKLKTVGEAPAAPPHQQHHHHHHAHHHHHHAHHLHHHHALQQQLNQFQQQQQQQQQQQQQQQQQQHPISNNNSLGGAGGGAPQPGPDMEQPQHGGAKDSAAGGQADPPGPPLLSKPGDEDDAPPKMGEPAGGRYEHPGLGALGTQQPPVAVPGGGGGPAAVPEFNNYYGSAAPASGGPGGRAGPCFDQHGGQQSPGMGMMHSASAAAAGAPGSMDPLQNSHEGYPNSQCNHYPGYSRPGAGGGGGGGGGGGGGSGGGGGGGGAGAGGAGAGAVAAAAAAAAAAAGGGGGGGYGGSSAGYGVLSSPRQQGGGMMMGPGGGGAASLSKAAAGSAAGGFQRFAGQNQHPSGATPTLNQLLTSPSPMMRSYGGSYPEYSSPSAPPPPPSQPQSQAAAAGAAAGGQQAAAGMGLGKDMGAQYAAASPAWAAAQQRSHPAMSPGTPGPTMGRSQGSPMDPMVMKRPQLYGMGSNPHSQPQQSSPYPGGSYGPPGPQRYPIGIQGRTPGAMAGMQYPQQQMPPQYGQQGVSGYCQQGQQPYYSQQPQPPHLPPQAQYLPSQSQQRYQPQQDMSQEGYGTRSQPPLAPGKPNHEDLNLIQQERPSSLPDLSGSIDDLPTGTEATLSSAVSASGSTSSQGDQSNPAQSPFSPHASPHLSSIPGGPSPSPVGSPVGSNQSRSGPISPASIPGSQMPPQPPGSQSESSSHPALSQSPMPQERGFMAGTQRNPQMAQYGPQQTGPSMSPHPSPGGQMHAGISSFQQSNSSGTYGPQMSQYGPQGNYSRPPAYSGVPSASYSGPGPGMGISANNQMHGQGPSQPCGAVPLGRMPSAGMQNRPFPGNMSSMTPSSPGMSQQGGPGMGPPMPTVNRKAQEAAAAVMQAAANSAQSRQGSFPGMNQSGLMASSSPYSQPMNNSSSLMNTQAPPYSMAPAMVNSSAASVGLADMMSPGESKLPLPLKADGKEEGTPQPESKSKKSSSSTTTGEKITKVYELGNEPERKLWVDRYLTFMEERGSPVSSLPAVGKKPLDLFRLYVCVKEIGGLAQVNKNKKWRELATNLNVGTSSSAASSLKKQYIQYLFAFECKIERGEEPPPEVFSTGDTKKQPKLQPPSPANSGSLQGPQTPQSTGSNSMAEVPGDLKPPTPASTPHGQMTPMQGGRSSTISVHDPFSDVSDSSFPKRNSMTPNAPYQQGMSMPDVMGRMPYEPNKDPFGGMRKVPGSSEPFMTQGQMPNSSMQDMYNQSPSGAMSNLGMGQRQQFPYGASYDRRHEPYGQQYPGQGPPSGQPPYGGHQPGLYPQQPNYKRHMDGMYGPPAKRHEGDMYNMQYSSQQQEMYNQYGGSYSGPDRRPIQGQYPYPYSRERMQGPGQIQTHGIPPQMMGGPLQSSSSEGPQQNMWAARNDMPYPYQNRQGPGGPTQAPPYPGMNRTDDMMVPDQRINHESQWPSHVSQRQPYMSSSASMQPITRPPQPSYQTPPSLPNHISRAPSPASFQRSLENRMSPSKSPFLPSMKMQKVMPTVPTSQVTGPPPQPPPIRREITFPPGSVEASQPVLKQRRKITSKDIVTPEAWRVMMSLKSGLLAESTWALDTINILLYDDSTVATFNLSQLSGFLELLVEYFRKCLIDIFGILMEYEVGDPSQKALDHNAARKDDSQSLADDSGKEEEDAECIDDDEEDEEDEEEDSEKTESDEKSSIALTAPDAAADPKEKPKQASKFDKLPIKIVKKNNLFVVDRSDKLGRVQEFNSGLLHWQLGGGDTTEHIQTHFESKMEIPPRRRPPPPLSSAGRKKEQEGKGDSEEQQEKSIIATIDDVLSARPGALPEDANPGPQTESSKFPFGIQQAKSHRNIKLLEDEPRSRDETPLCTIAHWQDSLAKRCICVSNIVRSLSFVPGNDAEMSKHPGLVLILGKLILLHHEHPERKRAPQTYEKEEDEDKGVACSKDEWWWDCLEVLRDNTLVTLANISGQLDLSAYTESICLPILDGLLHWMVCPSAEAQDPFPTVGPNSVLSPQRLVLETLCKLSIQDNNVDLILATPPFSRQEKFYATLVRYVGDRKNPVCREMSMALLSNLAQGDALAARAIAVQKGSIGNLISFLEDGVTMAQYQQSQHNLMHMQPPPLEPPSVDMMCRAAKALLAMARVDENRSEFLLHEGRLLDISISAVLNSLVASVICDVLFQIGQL
# Sequence of UniProt Q9TUI8 (whole entry, looked up): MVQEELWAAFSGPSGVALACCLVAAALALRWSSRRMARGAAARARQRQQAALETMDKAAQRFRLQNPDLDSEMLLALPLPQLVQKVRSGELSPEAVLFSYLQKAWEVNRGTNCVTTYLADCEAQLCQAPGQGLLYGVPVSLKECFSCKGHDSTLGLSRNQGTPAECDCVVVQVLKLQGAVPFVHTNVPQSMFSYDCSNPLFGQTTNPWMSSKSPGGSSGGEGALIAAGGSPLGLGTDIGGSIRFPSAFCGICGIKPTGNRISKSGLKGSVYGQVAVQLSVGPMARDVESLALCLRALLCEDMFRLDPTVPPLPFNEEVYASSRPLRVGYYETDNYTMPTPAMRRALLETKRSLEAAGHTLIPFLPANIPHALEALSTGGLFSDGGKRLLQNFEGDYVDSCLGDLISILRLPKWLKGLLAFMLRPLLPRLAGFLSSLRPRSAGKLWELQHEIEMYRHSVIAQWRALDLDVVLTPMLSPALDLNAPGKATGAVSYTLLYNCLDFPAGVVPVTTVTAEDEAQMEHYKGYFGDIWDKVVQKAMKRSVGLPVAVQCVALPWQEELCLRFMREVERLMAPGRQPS
# Sequence of UniProt P21554 (whole entry, looked up): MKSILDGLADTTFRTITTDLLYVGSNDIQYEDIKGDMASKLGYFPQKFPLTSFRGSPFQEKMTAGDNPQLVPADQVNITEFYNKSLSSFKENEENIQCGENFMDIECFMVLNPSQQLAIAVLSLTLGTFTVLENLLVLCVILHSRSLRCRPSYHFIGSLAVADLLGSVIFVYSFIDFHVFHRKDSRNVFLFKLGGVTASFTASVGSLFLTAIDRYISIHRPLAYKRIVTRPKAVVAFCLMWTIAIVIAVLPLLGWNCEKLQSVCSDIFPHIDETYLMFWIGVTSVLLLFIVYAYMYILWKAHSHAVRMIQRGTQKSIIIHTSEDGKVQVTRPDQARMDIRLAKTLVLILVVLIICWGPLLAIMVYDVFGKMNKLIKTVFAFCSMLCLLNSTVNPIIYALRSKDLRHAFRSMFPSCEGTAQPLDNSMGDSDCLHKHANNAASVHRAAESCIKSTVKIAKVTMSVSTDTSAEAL
# Sequence of UniProt Q8NER1 (whole entry, unmodified, looked up): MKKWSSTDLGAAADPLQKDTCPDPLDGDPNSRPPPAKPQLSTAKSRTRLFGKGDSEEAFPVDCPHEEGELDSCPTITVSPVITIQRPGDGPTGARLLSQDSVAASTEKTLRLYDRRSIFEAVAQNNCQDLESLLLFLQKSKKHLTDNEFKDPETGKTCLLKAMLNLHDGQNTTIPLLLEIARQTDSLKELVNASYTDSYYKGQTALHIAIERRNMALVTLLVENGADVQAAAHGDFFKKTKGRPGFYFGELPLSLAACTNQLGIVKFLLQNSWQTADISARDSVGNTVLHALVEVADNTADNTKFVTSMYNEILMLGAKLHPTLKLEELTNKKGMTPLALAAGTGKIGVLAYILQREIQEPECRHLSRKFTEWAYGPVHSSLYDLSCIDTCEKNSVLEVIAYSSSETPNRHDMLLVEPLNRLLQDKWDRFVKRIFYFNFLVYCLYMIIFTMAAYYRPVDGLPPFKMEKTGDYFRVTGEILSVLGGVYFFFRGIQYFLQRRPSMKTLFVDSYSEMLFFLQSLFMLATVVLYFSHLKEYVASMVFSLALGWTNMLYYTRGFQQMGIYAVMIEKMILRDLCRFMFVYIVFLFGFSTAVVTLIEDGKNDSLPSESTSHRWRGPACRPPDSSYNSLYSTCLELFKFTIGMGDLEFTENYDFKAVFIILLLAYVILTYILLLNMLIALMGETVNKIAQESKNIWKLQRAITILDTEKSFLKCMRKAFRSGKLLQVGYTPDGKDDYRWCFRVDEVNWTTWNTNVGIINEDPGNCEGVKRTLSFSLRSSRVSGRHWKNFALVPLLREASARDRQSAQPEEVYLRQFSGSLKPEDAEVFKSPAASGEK
SMILES,tested on,assay,system,setting,measurement,result
COc1ccccc1C(C[N+](=O)[O-])c1c(-c2ccccc2)[nH]c2ccccc12 (centres unmarked),"Cannabinoid receptor 1, with Gi2 (CNR1, Homo sapiens, UniProt P21554)","Gi2 dissociation, agonist, BRET",HEK293,,EC50,130 ± 50 nM
O=C(CCc1c(C(=O)Nc2ccc(I)cc2)[nH]c2ccc(Cl)cc12)Nc1ccc(I)cc1,gyrB with GyrA,,,,IC50,201000 nM
O=C(c1ccc(Cl)cc1Cl)N1CCO[C@@H](c2ccccc2)C1,HA,,A/Puerto Rico/8/1934,,IC50,1900 nM
CC(C)c1nc2cc(O)ccc2c(=O)n1-c1ccc(C#N)cc1,"Transient receptor potential cation channel subfamily V member 1 (TRPV1, Homo sapiens, UniProt Q8NER1, T550L)","ion current, antagonist, whole-cell patch clamp",,"mutant T550L, +80 mV, added: pH 5 stimulus",IC50,600 nM
O=C1NC2(CC2)COc2ncc(F)cc2[C@H]2COCCN2c2ccn3ncc1c3n2,,,"Sprague-Dawley rat, male, adrenals","oral, 2.5 mg/kg/day, 4 weeks dosing, end of recovery",organ-to-brain weight ratio,2.66 ± 0.17%
Cc1ccc(N2CC3CN(C)CC3C2)cc1C(=O)N[C@H](C)c1cc(-c2cnn(C)c2)nc2ccccc12 (some centres unmarked),African green monkey cells,,,15.62 µM,viability,105%
O=C(CCc1c(C(=O)Nc2cccc(Cl)c2)[nH]c2ccc(Cl)cc12)Nc1cccc(Cl)c1,gyrB with GyrA,,,,IC50,138000 nM
C[C@@H](N1CN([C@H]2c3ccccc3CSc3ccccc32)n2cc(C(=O)O)c(=O)c(O)c2C1=O)C(F)(F)F,"Polymerase acidic protein, endonuclease domain (PA, Influenza A virus, UniProt P15659)",,influenza A virus A/WSN/33 H1N1,,IC50,39 nM
CC(C)CC(C(=O)N1CC2(CC1C#N)C(=O)Nc1ccccc12)N(C)C(=O)c1cc2c(F)cc(F)c(F)c2[nH]1 (centres unmarked),"Angiotensin-converting enzyme 2 (ACE2, Homo sapiens, UniProt Q9BYF1)","enzyme activity, inhibitor",,,IC50,> 100000 nM
CC(C)C[C@@H]1NC(=O)CN(C)C(=O)[C@H](Cc2c[nH]c3ccccc23)NC(=O)[C@H](CCC(=O)O)NC(=O)[C@H](C)N(C)C(=O)[C@H](Cc2ccccc2)NC(=O)CSC[C@@H](C(N)=O)NC(=O)[C@H](CCCCN)NC(=O)[C@H](C(C)C)NC(=O)[C@H](Cc2ccc(O)cc2)NC(=O)[C@H](Cc2ccc(O)cc2)NC(=O)[C@H](C(C)C)NC(=O)[C@H](Cc2ccccc2)N(C)C(=O)[C@H](CCCNC(=N)N)NC1=O,ARID1B,"binding, TR-FRET competition",,1% DMSO,IC50,> 1000 nM
O=C(c1c(Cl)cc(Cl)cc1Cl)N1CCOC(c2ccccc2)C1 (centres unmarked),HA,,A/Puerto Rico/8/1934,,IC50,1000 nM
CC(C)C[C@@H]1NC(=O)CN(C)C(=O)[C@H](Cc2c[nH]c3ccccc23)NC(=O)[C@H](C)NC(=O)[C@H](Cc2ccccc2)N(C)C(=O)[C@H](Cc2ccccc2)NC(=O)CSC[C@@H](C(N)=O)NC(=O)[C@H](CCCCN)NC(=O)[C@H](C(C)C)NC(=O)[C@H](Cc2ccc(O)cc2)NC(=O)[C@H](Cc2ccc(O)cc2)NC(=O)[C@H](C(C)C)NC(=O)[C@H](Cc2ccccc2)N(C)C(=O)[C@H](CCCNC(=N)N)NC1=O,ARID1B,"binding, TR-FRET competition",,1% DMSO,IC50,10 nM
O=C(CCc1c(C(=O)Nc2ccc(Cl)cc2)[nH]c2ccc(Cl)cc12)Nc1ccc(Cl)cc1,gyrB with GyrA,,,,IC50,1500 nM
CC(C)C[C@@H]1NC(=O)CN(C)C(=O)[C@H](Cc2c[nH]c3ccccc23)NC(=O)[C@H](CCC(=O)O)NC(=O)[C@H](Cc2ccccc2)N(C)C(=O)[C@H](Cc2ccc(N=[N+]=[N-])cc2)NC(=O)CSC[C@@H](C(N)=O)NC(=O)[C@H](CCCCN)NC(=O)[C@H](C(C)C)NC(=O)[C@H](Cc2ccc(O)cc2)NC(=O)[C@H](Cc2ccc(O)cc2)NC(=O)[C@H](C(C)C)NC(=O)[C@H](Cc2ccccc2)N(C)C(=O)[C@H](CCCNC(=N)N)NC1=O,ARID1B,"binding, TR-FRET competition",,1% DMSO,IC50,20 nM
O=C(CCc1c(C(=O)Nc2cccc(F)c2)[nH]c2ccc(Cl)cc12)Nc1cccc(F)c1,gyrB with GyrA,,,,IC50,22800 nM
CC1=C[C@H]2c3c(O)cc(CCc4ccccc4)cc3OC(C)(C)[C@@H]2CC1,"Fatty-acid amide hydrolase 1 (FAAH, Sus scrofa, UniProt Q9TUI8)",inhibitor,,,IC50,43600 ± 3500 nM
O=C(CCc1c(C(=O)Nc2ccccc2)[nH]c2ccc(Cl)cc12)Nc1ccccc1,gyrB with GyrA,,,,IC50,23400 nM
N=C(N)NCCC[C@@H]1NC(=O)[C@H](CCCCNC(=O)CCC(NC(=S)Nc2ccc(CC3CN(CC(=O)O)CCN(CC(=O)O)CCN(CC(=O)O)CCN3CC(=O)O)cc2)C(=O)NCCCC[C@@H]2NC(=O)[C@@H](Cc3ccc(O)cc3)NC(=O)[C@H](CC(=O)O)NC(=O)CNC(=O)[C@H](CCCNC(=N)N)NC2=O)NC(=O)[C@@H](Cc2ccc(O)cc2)NC(=O)[C@H](CC(=O)O)NC(=O)CNC1=O (some centres unmarked) [scandium-44 labelled],,ex vivo γ-counting,"female athymic nude mice, U-87 MG xenograft, spleen","intravenous, 4 h, added: cRGD 50 mg/kg blocking",tissue uptake,0.064 ± 0.016 %ID/g
CC(C)C[C@@H]1NC(=O)CN(C)C(=O)[C@H](Cc2c[nH]c3ccccc23)NC(=O)[C@H](CCC(=O)O)NC(=O)[C@H](Cc2ccccc2)N(C)C(=O)[C@H](Cc2ccccc2)NC(=O)CSC[C@@H](C(N)=O)NC(=O)[C@H](C)NC(=O)[C@H](C(C)C)NC(=O)[C@H](Cc2ccc(O)cc2)NC(=O)[C@H](Cc2ccc(O)cc2)NC(=O)[C@H](C(C)C)NC(=O)[C@H](Cc2ccccc2)N(C)C(=O)[C@H](CCCNC(=N)N)NC1=O,ARID1B,"binding, TR-FRET competition",,1% DMSO,IC50,10 nM
CCn1ccc(-c2cc([C@@H](C)NC(=O)c3cc(N4CCN(C)[C@H](C)C4)ccc3C)c3ccccc3n2)n1,Vero E6,,,15.62 µM,viability,92.6% and 88.1% and 92.1%
Cc1cc(C(=O)Nc2nc3cccc(C)c3n2[C@H]2CCCCN(C(=O)/C=C/CN(C)C)C2)ccn1,Trypanosoma brucei,"propidium iodide flow cytometry, refers to: S phase",bloodstream CLK1 over-expression uninduced,concentration not given,cell cycle distribution,10.8% and 14.6% and 11.7%
CC(C)C[C@@H]1NC(=O)CN(C)C(=O)[C@H](C)NC(=O)[C@H](CCC(=O)O)NC(=O)[C@H](Cc2ccccc2)N(C)C(=O)[C@H](Cc2ccccc2)NC(=O)CSC[C@@H](C(N)=O)NC(=O)[C@H](CCCCN)NC(=O)[C@H](C(C)C)NC(=O)[C@H](Cc2ccc(O)cc2)NC(=O)[C@H](Cc2ccc(O)cc2)NC(=O)[C@H](C(C)C)NC(=O)[C@H](Cc2ccccc2)N(C)C(=O)[C@H](CCCNC(=N)N)NC1=O,ARID1B,"binding, TR-FRET competition",,1% DMSO,IC50,> 1000 nM
CC(C)(C)C(=O)OCOP(=O)(OCOC(=O)C(C)(C)C)C1CCCN(O)C1=O (centres unmarked),MDA-MB-468,,,,CC50,49500 nM

# For quick reference, copied from above:
SMILES,tested on,assay,system,setting,measurement,result
O=C1NC2(CC2)COc2ncc(F)cc2[C@H]2COCCN2c2ccn3ncc1c3n2,,,"Sprague-Dawley rat, male, adrenals","oral, 2.5 mg/kg/day, 4 weeks dosing, end of recovery",organ-to-brain weight ratio,2.66 ± 0.17%
CC(C)C[C@@H]1NC(=O)CN(C)C(=O)[C@H](Cc2c[nH]c3ccccc23)NC(=O)[C@H](CCC(=O)O)NC(=O)[C@H](Cc2ccccc2)N(C)C(=O)[C@H](Cc2ccccc2)NC(=O)CSC[C@@H](C(N)=O)NC(=O)[C@H](C)NC(=O)[C@H](C(C)C)NC(=O)[C@H](Cc2ccc(O)cc2)NC(=O)[C@H](Cc2ccc(O)cc2)NC(=O)[C@H](C(C)C)NC(=O)[C@H](Cc2ccccc2)N(C)C(=O)[C@H](CCCNC(=N)N)NC1=O,ARID1B,"binding, TR-FRET competition",,1% DMSO,IC50,10 nM
CC(C)C[C@@H]1NC(=O)CN(C)C(=O)[C@H](Cc2c[nH]c3ccccc23)NC(=O)[C@H](C)NC(=O)[C@H](Cc2ccccc2)N(C)C(=O)[C@H](Cc2ccccc2)NC(=O)CSC[C@@H](C(N)=O)NC(=O)[C@H](CCCCN)NC(=O)[C@H](C(C)C)NC(=O)[C@H](Cc2ccc(O)cc2)NC(=O)[C@H](Cc2ccc(O)cc2)NC(=O)[C@H](C(C)C)NC(=O)[C@H](Cc2ccccc2)N(C)C(=O)[C@H](CCCNC(=N)N)NC1=O,ARID1B,"binding, TR-FRET competition",,1% DMSO,IC50,10 nM
CC(C)(C)C(=O)OCOP(=O)(OCOC(=O)C(C)(C)C)C1CCCN(O)C1=O (centres unmarked),MDA-MB-468,,,,CC50,49500 nM
